Results pooled from the literature.
A part holds a random share of what one study measured. Substitutions count along the parent as printed.

Series 1
Target: RNA binding protein fox-1 homolog 2, RRM domain, GST-SBP tag (RBFOX2, Homo sapiens, UniProt O43251-10, residues 100-194)
Method: RNA Bind-n-Seq
Molecule type: RNA
Matrix: in vitro
Concentration: 365 nM
Notes: natural RNA segment, single round, ends assumed
Reference: no-protein control
Direction: higher = stronger binding
Target sequence (chain): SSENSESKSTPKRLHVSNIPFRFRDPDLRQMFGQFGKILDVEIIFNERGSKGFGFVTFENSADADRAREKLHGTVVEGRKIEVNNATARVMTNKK
Oligonucleotide	RBNS enrichment (R)
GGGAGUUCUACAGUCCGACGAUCUUUUAUUUCAGUUUUUAUUAUAUAUUUAUUUGAAAUAUUUAUUAAAUUAUCUGACCUACAGAACUAAUUCUUCUCCUUUUGUUAUUUCUUAUGUCCUAUACCAUAUAUGUUGGAAUUCUCGGGUGCCAA	3.74
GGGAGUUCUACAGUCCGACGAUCGAAUUAUCUCAAGUAAAACAGUGAAAUAAAGUUAUAAAAUAAAAUUACAAGAUUUGGCAGCCAUGAUAAUAGGUCAUAUGUUGUAUUUCGUUUGAUUUUUUUUCUGUAAAUGGAAUUCUCGGGUGCCAA	0.839
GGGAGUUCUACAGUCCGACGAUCGUUCUUUUAUAAAGAUAUGGAUUGGUUUACCAGCUGUUUAAAAAAAAAAACAUGUGUCCUAGCUGGGCAUAGUGGUGCAUACCUUUAAUCCCAGCACUUGGGAGGCAGAGUGGAAUUCUCGGGUGCCAA	0.336
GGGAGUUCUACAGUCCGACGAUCUAUACCUAAUGCUAGAUGACGAGUUAGUGGGUGCAGCGCACCAGCAUGGCACAUGUAUACCUAUGUAACUAACCUGCACAAUGUGCACAUGUACCCUAAAACUUAAAGUAUGGAAUUCUCGGGUGCCAA	1.15
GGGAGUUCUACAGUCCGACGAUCGAAAAUAAUUUGUAAAAUGUCAUUCGAAGGUUAAUGAUGAUUGUGAUGUUUAGGAAUGUUUGUCUCAGCCACAGUUCCUUCAUAGCUUUUCCAAAAUGAAUUGGGAAAAAUGGAAUUCUCGGGUGCCAA	2.13
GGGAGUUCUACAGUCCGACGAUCUUUAUAUGGAAAUGUGUCUUGAUAAUAUUACCUAUUAAAUGUGUAUUUAUAGUCCCUCCUAUCAAACAAUUACAGAGCACAAUGAUUGUCAUUGGGUAUAUAUGUAUUUAUGGAAUUCUCGGGUGCCAA	0.614
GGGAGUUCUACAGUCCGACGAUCCUAUGUCAGAAGCAGCAGGCUUUGCUUCAGCUUGAGUUGGAGCCGUGUGAGUCUCAGGCCAGGCCCUUAUUUCUGAAUGUGUUUGAAUUUUAAGUUUGCCUUAUCAGAUAUGGAAUUCUCGGGUGCCAA	1.6
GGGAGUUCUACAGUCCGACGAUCGAGUAACUAUUUUCUUUCUGUUUUCUUUUACUCUGCUUACAUUUUAUAAGUUUAAGGUCAGCUGUCAAAAGGAUAACCUGUGGGGUUAGAACAUAUCACAUUGCAACACCUGGAAUUCUCGGGUGCCAA	0.28
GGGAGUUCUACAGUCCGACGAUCUUGUUAUAGUAACAUAAAUAAUACACAGAAUUUUGUUACACUAUCAGUUUGGGGGGUGAGCUUUGAUUAAUUCCCCAGGCUCUUGGAUUUCAAGAGUAGCUGCCUUAAAAUGGAAUUCUCGGGUGCCAA	0.373
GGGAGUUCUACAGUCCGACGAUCCAGUUUCCAGCUAGUCCUAGAGUUCUAUAUUUCUACAUAGUUGAAUUAUUUUAUCAUGCGGUUGCUGGGGAAUACAACUAACACUUUUGAAGCUACUAAUUUUAUGUCAAUGGAAUUCUCGGGUGCCAA	0.626
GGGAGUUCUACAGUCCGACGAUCCAGCUGGUGACUUCCCUUGUAGAGUGUUUGCGUAGUGGAGUGGCUGUGGCUCACCACCCCCUUUCCCAAGUGCUUUAAUGAAGACACCUCCCUUGUGUUUCAACCAAUCAUGGAAUUCUCGGGUGCCAA	0.547
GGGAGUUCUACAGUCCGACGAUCCCUCACCCUGUGUUGCCCACCUCAGCCACCACUAAGACUGAUACUGAAAUAAAUCAUGUUAAUCCCAGCUGUGUGCUAUCACUCUUGGCCUUCUAUGUCCAGCCCAGUCUUGGAAUUCUCGGGUGCCAA	0.333

Series 2
Sequence: B1 (TRIM22 RING domain)
Method: yeast two-hybrid
Matrix: yeast
Notes: mostly zero background
Reference: not given
Direction: higher = stronger interaction
B1: TRIM22 RING domain (UniProt Q8IYM9); chain KEVKMSPQEGQKRDVCEHHGKKLQIFCKEDGKVICWVCELSQEHQGHQTFRINEVVKECQEK
target	lacZ reporter activity
UBE2S UBC core domain (UniProt Q16763)	0
UBE2M UBC core domain (UniProt P61081)	0
UBE2G1 UBC core domain (UniProt P62253)	0
BIRC6 UBC core domain (UniProt Q9NR09)	0
UBE2Q1 UBC core domain (UniProt Q7Z7E8)	0
UBE2J1 UBC core domain (UniProt Q9Y385)	0
UBE2B UBC core domain (UniProt P63146)	0
UBE2C UBC core domain (UniProt O00762)	0
UBE2J2 UBC core domain (UniProt Q8N2K1)	0
UBE2Z UBC core domain (UniProt Q9H832)	0
UBE2I UBC core domain (UniProt P63279)	0
UBE2T UBC core domain (UniProt Q9NPD8)	0
UBE2O UBC core domain (UniProt Q9C0C9)	0

Series 3
Target: CCNE1, cyclin fold, Cln2 fusion (human)
Method: yeast growth competition, sequencing
Matrix: yeast
Notes: strong parent motif
Reference: not given
Direction: higher = stronger binding
Starting sequence: PKMYT1 docking peptide (human); SFEPRNLLSLFED; partner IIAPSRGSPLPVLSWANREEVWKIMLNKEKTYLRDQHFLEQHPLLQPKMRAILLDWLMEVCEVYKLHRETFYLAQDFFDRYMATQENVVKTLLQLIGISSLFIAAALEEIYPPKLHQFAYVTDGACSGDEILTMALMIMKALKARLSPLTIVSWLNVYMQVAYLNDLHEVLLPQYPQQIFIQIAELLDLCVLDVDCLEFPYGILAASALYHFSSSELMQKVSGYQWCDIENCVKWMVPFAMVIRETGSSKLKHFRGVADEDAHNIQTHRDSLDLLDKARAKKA
Variant	normalised enrichment score
E12L	1.45
F11L	1.14
P4G	0.738
E3Y	2.43
L8G	-0.233
L8H	0.734
R5Y	0.632
E3R	2.67
R5K	2.12
P4F	0.489
E12S	1.53
F11Q	0.201
D13T	1.79
F2E	-0.031
F2K	-0.238
P4A	1.4
L7F	1.22
S9P	2.42
L10T	1.45
S9K	1.51
L10R	1.26
F11I	0.572
E12T	1.49

Series 4
Target: RING finger protein unkempt homolog, zinc fingers 1-6, SBP tag (UNK, Homo sapiens, UniProt Q9C0B0, residues 30-357)
Method: RNA Bind-n-Seq
Molecule type: RNA
Matrix: in vitro
Concentration: 100 nM
Notes: RNA with constant flanks, vertebrate orthologous sites, ends assumed
Reference: input RNA pool
Direction: higher = stronger binding
Oligonucleotide	bound/input enrichment [ratio]
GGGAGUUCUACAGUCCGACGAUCGGGAGAGCCGGUGGGGGAAUCCCAUGCCCUGGCCUGCCACCCCUCCCUGCCACCCGCUCCUAGUUUGUUUUUUUUUAAACCACCAUGUGAUUAAGGUCGGCACUGCCUCCCCCGACCAGCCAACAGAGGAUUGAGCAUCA	1.17
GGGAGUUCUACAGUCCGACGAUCUCAGACCUAAGCCAACAGCAGUUCUAAAAUGCUAUUUAUUUGUGUCUGUAAGUUUGUACAUAGUAAUAUCAACCUCAUAUUGUUGCAGUUUUUUUUUUCCAUGAGUUUGAGUUUUGCUUUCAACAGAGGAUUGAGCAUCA	0.511
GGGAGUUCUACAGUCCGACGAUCGCAGCUGCUUUUUCAUAUGGCCUCAGUGAGGUAACAUCUCCCUGGGCAUUCAGUCGGUACCAGAGCCCUUCUUUCCUAAGAAGACCGUUCACAUUUCACAUCCUUCCUUUUACACGCCAUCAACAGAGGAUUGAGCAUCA	0.371
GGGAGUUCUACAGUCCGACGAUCUUGGUUGAAGGUAGAGGGGAGGGAUGGGCAGGACAGUGUGGAAUCUCUAAGAUGUUAUGGGUAGGUAGGGACACAGUUUUAAGUGAGCCUUUAUGUUAAAAACUUCUGGAGAGGUCUUCUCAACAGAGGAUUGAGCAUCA	0.752
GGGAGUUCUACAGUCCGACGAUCAACAGCUUUUGCUUCAUUAAGAAGAGUAAAAACUAGUCCCCCCAACUUAAAAUGCCUAAAGAGCUAUUUUAAACAUCAAAAUGCUUCAAUUUUGUAAAUCACCUGACGUCACUACACACACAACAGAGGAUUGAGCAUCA	0.588
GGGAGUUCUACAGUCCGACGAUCGUGUUUUGGUACCAUUCAAUGUACCAAUACUCAUCCUUUUUUCAUUAUACCAACUAUCGCUAGAAGUAGGAGUUUAAUAUUUUUAAAAAUUUUACAUUGCUGUAUAUUCAAAAUUUUAAACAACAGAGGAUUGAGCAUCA	0.689
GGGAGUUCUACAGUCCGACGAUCGUUAGGCCAUGACCCUUAUAGGCUAGGUCAUGAUGCCUACAGGUUAGGGCAAGACCCCUAUAGAUUAGGGCAUGACCCCUACAGACUAACUCCUGAUCCCUAUAGGAUGUCACCUAGACCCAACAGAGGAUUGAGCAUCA	0.357
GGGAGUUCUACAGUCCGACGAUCCUGAAGCUUUGUGUUUGGCUGCACCUGCAUAAGCUGCUACAAAUAGAAUAAAGAAUUUCAUAGCCUGUAUCUAUCAUUUAGGUGCAUGGAAAAAAAUGGGCUUUGCACACAAUGGGUUUGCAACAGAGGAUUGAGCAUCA	1.69
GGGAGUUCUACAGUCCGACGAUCGUGUUUUGCACAGGGCAUUCUCUGUACUAGUUUGUUGUGGUUAUAAAACAAUUAGCAAAACAGCUUACAUUUGUAUUUAUUUUCUAUUCCAUACUUCUCUGCCCAUGGUUUUUUUUUUCCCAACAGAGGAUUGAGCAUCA	1.13
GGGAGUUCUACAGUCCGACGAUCAGCUUCUGGCGACAUUUGGCCCGGCCUUUCAGCGUAUGAUAACAGUCCAAGGUCACCCCAUAGUCCUUCUAUUGCCACCCCACCUAGCCAGAGUUCAUCUUGCUCUGAUGCCCCUCUGCUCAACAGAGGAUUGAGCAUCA	0.71
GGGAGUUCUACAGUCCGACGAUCAGACUUAUAUUGUGGCAUAUAGUCAACAUGGAAGUAGACCAGCUCUGCCGAUUUGAAAUUUAGAUUUUUUUAAAUUAUGUACUGGGGACAGGUCUUUGUCGCUUUACAUUGCUUCCUAGUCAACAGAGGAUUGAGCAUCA	2.78

Repeated from above (series 4):
Oligonucleotide	bound/input enrichment [ratio]
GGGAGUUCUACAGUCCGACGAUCGCAGCUGCUUUUUCAUAUGGCCUCAGUGAGGUAACAUCUCCCUGGGCAUUCAGUCGGUACCAGAGCCCUUCUUUCCUAAGAAGACCGUUCACAUUUCACAUCCUUCCUUUUACACGCCAUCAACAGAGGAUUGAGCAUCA	0.371
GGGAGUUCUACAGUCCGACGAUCUUGGUUGAAGGUAGAGGGGAGGGAUGGGCAGGACAGUGUGGAAUCUCUAAGAUGUUAUGGGUAGGUAGGGACACAGUUUUAAGUGAGCCUUUAUGUUAAAAACUUCUGGAGAGGUCUUCUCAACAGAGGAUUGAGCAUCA	0.752
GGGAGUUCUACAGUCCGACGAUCAACAGCUUUUGCUUCAUUAAGAAGAGUAAAAACUAGUCCCCCCAACUUAAAAUGCCUAAAGAGCUAUUUUAAACAUCAAAAUGCUUCAAUUUUGUAAAUCACCUGACGUCACUACACACACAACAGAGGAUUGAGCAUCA	0.588
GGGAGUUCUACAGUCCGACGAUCGUGUUUUGGUACCAUUCAAUGUACCAAUACUCAUCCUUUUUUCAUUAUACCAACUAUCGCUAGAAGUAGGAGUUUAAUAUUUUUAAAAAUUUUACAUUGCUGUAUAUUCAAAAUUUUAAACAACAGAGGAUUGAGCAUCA	0.689
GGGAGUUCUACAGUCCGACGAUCGUUAGGCCAUGACCCUUAUAGGCUAGGUCAUGAUGCCUACAGGUUAGGGCAAGACCCCUAUAGAUUAGGGCAUGACCCCUACAGACUAACUCCUGAUCCCUAUAGGAUGUCACCUAGACCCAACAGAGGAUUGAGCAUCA	0.357
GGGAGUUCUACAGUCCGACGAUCCUGAAGCUUUGUGUUUGGCUGCACCUGCAUAAGCUGCUACAAAUAGAAUAAAGAAUUUCAUAGCCUGUAUCUAUCAUUUAGGUGCAUGGAAAAAAAUGGGCUUUGCACACAAUGGGUUUGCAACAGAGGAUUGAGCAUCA	1.69
